Assay results pooled from the literature.
Protocols differ between the studies behind these lines. ± gives the spread as reported. Where no end group is shown, it is not given here.
MAL12: Alpha-glucosidase MAL12 (MAL12, Saccharomyces cerevisiae S288c, UniProt P53341)
Chain of UniProt P53341 (whole entry, looked up): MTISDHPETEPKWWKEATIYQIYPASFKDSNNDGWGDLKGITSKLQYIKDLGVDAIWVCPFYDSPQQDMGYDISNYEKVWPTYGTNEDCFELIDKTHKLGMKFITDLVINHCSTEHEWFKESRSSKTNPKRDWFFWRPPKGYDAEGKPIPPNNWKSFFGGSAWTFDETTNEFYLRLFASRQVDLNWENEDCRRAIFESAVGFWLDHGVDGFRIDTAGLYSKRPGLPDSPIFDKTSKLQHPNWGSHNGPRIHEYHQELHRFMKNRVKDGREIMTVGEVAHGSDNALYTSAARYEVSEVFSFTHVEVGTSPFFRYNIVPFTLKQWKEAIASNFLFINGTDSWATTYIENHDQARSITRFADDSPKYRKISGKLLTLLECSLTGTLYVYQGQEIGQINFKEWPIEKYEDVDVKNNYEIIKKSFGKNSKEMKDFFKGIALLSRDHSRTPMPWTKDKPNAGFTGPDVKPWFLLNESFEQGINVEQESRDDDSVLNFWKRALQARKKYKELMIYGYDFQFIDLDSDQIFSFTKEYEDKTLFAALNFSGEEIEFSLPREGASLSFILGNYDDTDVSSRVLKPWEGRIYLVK
WWOX WW1 domain: WW domain-containing oxidoreductase, WW1 domain (WWOX, Homo sapiens, UniProt Q9NZC7)
Chain of UniProt Q9NZC7 (whole entry, unmodified, looked up): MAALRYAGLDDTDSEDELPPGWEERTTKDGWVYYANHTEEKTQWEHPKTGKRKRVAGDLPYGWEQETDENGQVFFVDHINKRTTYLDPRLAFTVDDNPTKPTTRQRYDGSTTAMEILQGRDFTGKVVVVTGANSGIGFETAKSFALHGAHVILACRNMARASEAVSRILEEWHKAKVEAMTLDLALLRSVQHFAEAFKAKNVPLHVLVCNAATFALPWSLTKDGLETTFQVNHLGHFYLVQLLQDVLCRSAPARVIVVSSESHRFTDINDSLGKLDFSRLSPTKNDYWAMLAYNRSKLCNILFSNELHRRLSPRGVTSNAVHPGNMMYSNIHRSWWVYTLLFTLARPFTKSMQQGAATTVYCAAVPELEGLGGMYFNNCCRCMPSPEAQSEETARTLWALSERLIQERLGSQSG
HBA1 with beta chain: Hemoglobin subunit alpha, with beta chain (HBA1, Homo sapiens, UniProt P69905)
Chain of UniProt P69905 (whole entry, looked up): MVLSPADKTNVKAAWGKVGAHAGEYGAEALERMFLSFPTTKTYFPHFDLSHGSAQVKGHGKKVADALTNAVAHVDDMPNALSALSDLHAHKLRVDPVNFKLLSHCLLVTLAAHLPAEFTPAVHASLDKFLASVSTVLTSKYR
SCN9A: Sodium channel protein type 9 subunit alpha (SCN9A, Homo sapiens, UniProt Q15858)
Chain of UniProt Q15858 (whole entry, looked up): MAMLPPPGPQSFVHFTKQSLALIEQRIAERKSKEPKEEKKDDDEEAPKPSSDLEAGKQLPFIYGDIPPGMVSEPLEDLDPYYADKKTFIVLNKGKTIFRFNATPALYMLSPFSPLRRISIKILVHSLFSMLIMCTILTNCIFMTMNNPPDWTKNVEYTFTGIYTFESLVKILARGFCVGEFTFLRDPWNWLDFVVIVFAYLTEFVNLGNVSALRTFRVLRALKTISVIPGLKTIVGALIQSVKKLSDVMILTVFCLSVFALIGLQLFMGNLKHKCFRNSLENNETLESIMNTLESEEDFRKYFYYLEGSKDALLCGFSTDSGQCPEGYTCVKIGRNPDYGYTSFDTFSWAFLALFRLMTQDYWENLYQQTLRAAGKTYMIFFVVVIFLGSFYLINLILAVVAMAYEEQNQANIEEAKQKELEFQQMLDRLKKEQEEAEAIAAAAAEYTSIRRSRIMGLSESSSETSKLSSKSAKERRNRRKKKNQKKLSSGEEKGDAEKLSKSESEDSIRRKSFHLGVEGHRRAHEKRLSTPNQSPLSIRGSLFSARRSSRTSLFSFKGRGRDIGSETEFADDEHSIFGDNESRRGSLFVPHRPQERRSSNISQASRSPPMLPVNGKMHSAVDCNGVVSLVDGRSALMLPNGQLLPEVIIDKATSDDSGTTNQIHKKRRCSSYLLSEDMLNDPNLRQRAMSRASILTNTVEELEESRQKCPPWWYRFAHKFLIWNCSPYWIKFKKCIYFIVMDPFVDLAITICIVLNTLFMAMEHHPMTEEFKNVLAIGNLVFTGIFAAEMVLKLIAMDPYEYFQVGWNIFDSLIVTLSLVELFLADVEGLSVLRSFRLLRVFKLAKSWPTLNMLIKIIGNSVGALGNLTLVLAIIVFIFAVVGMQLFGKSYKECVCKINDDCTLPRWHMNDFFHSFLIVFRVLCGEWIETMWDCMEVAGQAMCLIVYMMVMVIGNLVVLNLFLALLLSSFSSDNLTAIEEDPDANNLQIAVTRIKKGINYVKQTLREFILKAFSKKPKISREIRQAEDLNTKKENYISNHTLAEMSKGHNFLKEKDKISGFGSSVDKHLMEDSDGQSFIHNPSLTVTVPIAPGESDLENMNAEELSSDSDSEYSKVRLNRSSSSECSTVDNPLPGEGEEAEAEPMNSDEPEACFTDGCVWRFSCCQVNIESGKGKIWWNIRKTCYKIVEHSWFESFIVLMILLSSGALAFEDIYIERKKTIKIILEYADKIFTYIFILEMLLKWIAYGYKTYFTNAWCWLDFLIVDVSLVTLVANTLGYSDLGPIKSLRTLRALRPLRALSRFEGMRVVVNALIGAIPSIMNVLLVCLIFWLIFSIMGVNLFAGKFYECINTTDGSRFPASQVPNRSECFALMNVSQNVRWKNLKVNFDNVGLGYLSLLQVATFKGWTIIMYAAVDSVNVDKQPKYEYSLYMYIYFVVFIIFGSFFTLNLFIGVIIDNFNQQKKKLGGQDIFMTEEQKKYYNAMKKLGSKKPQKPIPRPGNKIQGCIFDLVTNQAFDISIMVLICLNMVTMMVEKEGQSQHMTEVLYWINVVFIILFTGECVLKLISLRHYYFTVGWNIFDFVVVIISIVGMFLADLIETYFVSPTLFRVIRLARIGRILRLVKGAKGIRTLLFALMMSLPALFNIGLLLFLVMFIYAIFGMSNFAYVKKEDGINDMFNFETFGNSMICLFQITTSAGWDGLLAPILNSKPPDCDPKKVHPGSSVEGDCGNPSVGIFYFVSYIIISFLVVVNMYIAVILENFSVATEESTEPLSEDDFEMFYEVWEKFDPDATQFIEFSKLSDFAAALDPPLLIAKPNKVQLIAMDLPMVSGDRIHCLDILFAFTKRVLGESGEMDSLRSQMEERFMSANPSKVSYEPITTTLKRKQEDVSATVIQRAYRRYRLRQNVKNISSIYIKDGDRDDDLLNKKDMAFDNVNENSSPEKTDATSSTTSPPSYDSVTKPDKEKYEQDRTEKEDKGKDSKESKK
B1: disulfide; chain GLIHQYCQGYWRHVPPSPREAPGAPRSPEPDQKKPRNRRHHPPDT (disulfide (positions not given here))
Chain of UniProt P0DMV8 (whole entry, looked up): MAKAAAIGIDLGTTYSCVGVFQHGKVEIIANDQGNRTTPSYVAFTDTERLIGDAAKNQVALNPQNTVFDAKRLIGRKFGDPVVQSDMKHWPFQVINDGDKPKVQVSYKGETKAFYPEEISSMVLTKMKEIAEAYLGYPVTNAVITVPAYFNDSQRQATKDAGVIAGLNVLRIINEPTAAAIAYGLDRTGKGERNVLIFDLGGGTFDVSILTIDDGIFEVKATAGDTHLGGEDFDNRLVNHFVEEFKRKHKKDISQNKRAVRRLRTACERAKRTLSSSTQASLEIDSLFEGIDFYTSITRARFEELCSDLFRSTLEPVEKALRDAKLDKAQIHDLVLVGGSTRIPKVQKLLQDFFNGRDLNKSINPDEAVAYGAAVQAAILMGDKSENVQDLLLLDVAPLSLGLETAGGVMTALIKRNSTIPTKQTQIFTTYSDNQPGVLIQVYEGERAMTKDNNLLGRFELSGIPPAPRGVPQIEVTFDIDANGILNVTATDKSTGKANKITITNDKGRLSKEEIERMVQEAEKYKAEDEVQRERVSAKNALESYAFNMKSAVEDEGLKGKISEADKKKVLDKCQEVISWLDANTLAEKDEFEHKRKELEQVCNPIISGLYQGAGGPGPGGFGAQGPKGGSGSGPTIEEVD
Chain of UniProt P28867 (whole entry, looked up): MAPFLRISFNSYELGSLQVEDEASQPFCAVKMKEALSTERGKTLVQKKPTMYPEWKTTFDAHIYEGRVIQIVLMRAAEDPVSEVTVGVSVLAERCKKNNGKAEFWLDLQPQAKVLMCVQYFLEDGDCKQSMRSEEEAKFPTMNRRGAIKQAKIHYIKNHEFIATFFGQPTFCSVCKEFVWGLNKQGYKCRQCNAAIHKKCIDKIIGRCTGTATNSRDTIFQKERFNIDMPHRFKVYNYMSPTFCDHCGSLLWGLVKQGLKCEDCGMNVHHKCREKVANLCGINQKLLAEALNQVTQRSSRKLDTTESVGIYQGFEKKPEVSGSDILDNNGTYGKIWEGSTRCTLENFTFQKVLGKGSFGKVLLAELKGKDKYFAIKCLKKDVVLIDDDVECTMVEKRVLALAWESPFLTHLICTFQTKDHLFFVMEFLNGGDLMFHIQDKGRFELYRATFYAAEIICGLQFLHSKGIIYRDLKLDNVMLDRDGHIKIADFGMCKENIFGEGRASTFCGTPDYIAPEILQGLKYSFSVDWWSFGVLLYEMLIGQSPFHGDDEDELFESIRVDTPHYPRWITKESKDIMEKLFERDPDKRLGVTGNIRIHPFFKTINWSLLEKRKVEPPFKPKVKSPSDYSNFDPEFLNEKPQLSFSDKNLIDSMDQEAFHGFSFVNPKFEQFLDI
Chain of UniProt P02741 (whole entry, looked up): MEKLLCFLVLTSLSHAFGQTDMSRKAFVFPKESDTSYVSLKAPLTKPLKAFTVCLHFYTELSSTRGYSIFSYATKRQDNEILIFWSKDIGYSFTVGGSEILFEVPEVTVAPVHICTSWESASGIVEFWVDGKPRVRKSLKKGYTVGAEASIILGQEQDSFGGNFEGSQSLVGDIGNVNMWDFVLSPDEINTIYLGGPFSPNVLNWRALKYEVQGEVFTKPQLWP
Chain of UniProt Q01727 (whole entry, looked up): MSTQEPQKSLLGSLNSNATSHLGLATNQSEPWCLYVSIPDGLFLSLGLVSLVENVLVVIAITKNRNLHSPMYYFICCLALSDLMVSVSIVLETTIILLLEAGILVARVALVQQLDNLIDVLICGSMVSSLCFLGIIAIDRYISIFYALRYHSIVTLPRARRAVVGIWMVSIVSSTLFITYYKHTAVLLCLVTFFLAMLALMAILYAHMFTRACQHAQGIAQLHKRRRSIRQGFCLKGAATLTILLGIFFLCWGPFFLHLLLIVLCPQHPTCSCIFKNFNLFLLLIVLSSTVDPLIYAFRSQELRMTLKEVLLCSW

Substance	target	assay	system	conditions	how to read	measurement	result
COc1cc2c(=O)c(OC)c(-c3ccccc3)oc2c(O)c1OC	MAL12	enzyme activity, inhibitor, absorbance		50 µM		inhibition	49.1%
CCCCCCCCCCCCCCCCOc1ccc(/C=C/C(O)=C/C(=O)/C=C/c2ccc(O)c(OC)c2)cc1OC	Protein kinase C delta type, C1B domain (Prkcd, Mus musculus, UniProt P28867)		buffer	5×1 µM, 1 h, 25 °C, protein excess		emission maximum	560 nm
CC(C)C[C@H](NC(=O)[C@H](C)NC(=O)[C@@H](N)[C@@H](C)O)C(=O)N1CCC[C@H]1C(=O)N1CCC[C@H]1C(=O)N1CCC[C@H]1C(=O)N1CCC[C@H]1C(=O)N[C@@H](Cc1ccc(O)cc1)C(=O)N[C@@H](CCCNC(=N)N)C(=O)N[C@@H](Cc1c[nH]cn1)C(=O)N[C@@H](CCCNC(=N)N)C(=O)N[C@@H](CC(N)=O)C(=O)O	WWOX WW1 domain	binding to WW1 domain, isothermal titration calorimetry		pH 7.0, 25 °C		entropy term TΔS	1.73 ± 0.34 kcal/mol
COc1ccc2c(=O)c(OC)c(-c3ccccc3)oc2c1	MAL12	enzyme activity, inhibitor, absorbance		50 µM		inhibition	23.2%
CC[C@]1(O)C[C@H]2CN(CCc3c([nH]c4ccccc34)[C@@](C(=O)OC)(c3cc4c(cc3OC)N(C=O)[C@H]3[C@@](O)(C(=O)OC)[C@H](OC(C)=O)[C@]5(CC)C=CCN6CC[C@]43[C@@H]65)C2)C1	Organic cation/carnitine transporter 2 (SLC22A5, Homo sapiens, UniProt O76082)	transporter uptake, inhibitor		10 µM		inhibition	31.1%
[H]/N=C(\N/C(=N/[H])NCCCCCCNC(=N)NC(=N)Nc1ccc(Cl)cc1)Nc1ccc(Cl)cc1	Alpha-synuclein, oligomers (SNCA, Homo sapiens, UniProt P37840)	oligomer-vesicle binding, FIDA		5 µM, added: 150 nM oligomers, 50 µM DOPG liposomes		liposome-bound oligomers	0%
B1	Neuropilin-2 (NRP2, Homo sapiens, UniProt O60462)	sedimentation velocity AUC		2.5-fold molar excess, 8 µM b1b2 domain		apparent molecular mass, monomer peak	41.7 ± 1.8 kDa
O=Cc1ccc(COc2ccccc2)o1	HBA1 with beta chain	measured: haemoglobin A adduct	human normal whole blood	2000 µM, 24 h, hematocrit 30%		peak modification	27.9%
O=Cc1ccc(C=O)o1	HBA1 with beta chain	binding, cation-exchange HPLC-UV/Vis		37 °C		association rate constant kon	0.15 M⁻¹ s⁻¹
C=CC(=O)Nc1ccccc1Nc1nc(Nc2ccc(N3CCN(C)CC3)cc2)ncc1Cl	MAP kinase-interacting serine/threonine-protein kinase 2 (MKNK2, Homo sapiens, UniProt Q9HBH9)	probe binding, inhibitor, chemoproteomic competition	NCI-H23 KRAS G12C	100 nM, 2 h, added: 2 µM desthiobiotin probe		labelling	> 50%
heparin	CRP, trimeric (Homo sapiens, UniProt P02741)	binding to C1q, inhibitor		up to 2.5 µg/well, added: C1q 0.5 µg/well		inhibition of binding	inhibited
CQLGPYELWELSH	bevacizumab	QCM frequency change, QCM	peptide	concentration not given, added: bevacizumab 1 µg/µL		binding	increased
O=C(O)/C=C/c1ccccc1O	PY04617 (Plasmodium yoelii, UniProt Q7RFT5)	ultrafiltration HPLC-UV		0.1 mM, pH 7.25, 4 °C, 6.5% DMSO, added: methionine competitor		UV signal reduction	75.9 ± 0.3%
CC(C)(C)OC(=O)OCc1ccc(C=O)o1	Hemoglobin subunit alpha, with sickle beta chain (HBA1, Homo sapiens, UniProt P69905)	oxygen affinity	sickle red cell lysate	2 mM	baseline: untreated	P50 change	44.8 ± 12.9%
PPCPAPELLGGPSVFLFP	FcγRI	binding, ELISA	peptide	16.6, 5.53, 1.84 µM, 2 h, 24 °C, added: human IgG1 1.3 µM		competition with IgG1	no inhibition
COc1c(-c2ccc(O)cc2)oc2c(OC)c(O)cc(O)c2c1=O	MAL12	enzyme activity, inhibitor, absorbance		5 µM		inhibition	62.1%
CC[C@H](C)[C@H](NC(=O)[C@@H]1CCCN1C(=O)[C@@H]1CCCN1C(=O)[C@@H]1CCCN1C(=O)[C@@H](NC(=O)[C@H](CC(N)=O)NC(=O)[C@@H](N)Cc1ccccc1)[C@@H](C)CC)C(=O)N[C@@H](Cc1ccc(O)cc1)C(=O)N[C@H](C(=O)N[C@@H](CO)C(=O)N[C@@H](CCCNC(=N)N)C(=O)N[C@@H](C)C(=O)O)[C@@H](C)O	WWOX WW1 domain	binding, ITC		pH 7.0, 25 °C		ΔH	-6.88 ± 0.48 kcal/mol
COCCCOc1cc(C[C@@H](C[C@H](N)[C@@H](O)C[C@H](C(=O)NCC(C)(C)C(N)=O)C(C)C)C(C)C)ccc1OC	Renin (Rattus norvegicus, UniProt P08424)	inhibitor, measured: angiotensin I	NRK-52E nuclear lysate	1 µM, 90 min, 37 °C, added: nephrectomized rat plasma angiotensinogen		renin activity	0.13 ± 0.01 nmol/mg/h
Cc1cn([C@H]2C[C@H](N=[N+]=[N-])[C@@H](CO[P@](=O)(O)O[P@](=O)(O)OP(=O)(O)O)O2)c(=O)[nH]c1=O	Gag-Pol polyprotein, reverse transcriptase (gag-pol, Human immunodeficiency virus 1, UniProt P03366)	reverse transcriptase DNA synthesis, inhibitor, CRISPR-Cas12a fluorescence		90 min		minimum inhibitory concentration	> 0.1 µM
Clc1cccc(Nc2nnc(-c3ccccc3)c3ccccc23)c1	cGMP-dependent 3',5'-cyclic phosphodiesterase (PDE2A, Homo sapiens, UniProt O00408)	cGMP hydrolysis, inhibitor, fluorescence polarization	recombinant enzyme	up to 100 µM, 30 min preincubation, 30 °C, added: TAMRA-cGMP 25 nM		IC50	inactive
CC(C)C[C@@H](N)[C@H](O)C(=O)N[C@H](C(=O)N[C@H](C(=O)N[C@@H](CC(=O)O)C(=O)O)C(C)C)C(C)C	Glutamyl aminopeptidase (Enpep, Rattus norvegicus, UniProt P50123)	inhibitor, MALDI-TOF MS	isolated rat glomeruli	100 µM, 60 min, 37 °C, added: ANG-I 1 µM		ANG-(2-10) formation	11.6 ± 1.7 pg/glomerulus

Substance	target	assay	system	conditions	how to read	measurement	result
BzATP	P2X purinoceptor 7 (P2rx7, Rattus norvegicus, UniProt Q64663)	ion current, agonist, two-electrode voltage clamp	Xenopus laevis oocytes	10 µM		deactivation time constant	18 ± 1.6 s
CCCNC(C)C(=O)Nc1c(C)csc1C(=O)OCC (centres unmarked)	SCN9A	cell membrane chromatography			higher = stronger binding	capacity factor k′	52.8
CC(C)C[C@H](NC(=O)[C@@H](NC(=O)[C@@H](N)[C@@H](C)O)C(C)C)C(=O)N1CCC[C@H]1C(=O)N1CCC[C@H]1C(=O)N1CCC[C@H]1C(=O)N1CCC[C@H]1C(=O)N[C@@H](Cc1ccc(O)cc1)C(=O)N[C@@H](CCCNC(=N)N)C(=O)N[C@@H](Cc1c[nH]cn1)C(=O)N[C@@H](CCCNC(=N)N)C(=O)N[C@@H](CC(N)=O)C(=O)O	WW domain-containing oxidoreductase, WW2 domain Y85W (WWOX, Homo sapiens, UniProt Q9NZC7, Y85W)	binding, ITC		pH 7.0, 25 °C		TΔS	1.68 ± 0.37 kcal/mol
Ac-RRWRIFKFISAHNP-NH2 (N-acetyl, C-amide)	Dual specificity mitogen-activated protein kinase kinase 6 (MAP2K6, Homo sapiens, UniProt P52564, S207E/T211E)	substrate, HPLC and MALDI-TOF MS	peptide	100 to 500 µM, 40 h, pH 7.5, room temperature, added: ATP 1 mM		phosphorylation	not detected
CCCNC(C)C(=O)Nc1c(C)csc1C(=O)OCCC (centres unmarked)	SCN9A	cell membrane chromatography			higher = stronger binding	capacity factor k′	81.4
CCCCC/C=C\S/C=C\CCCCCCCC(=O)O	Polyunsaturated fatty acid lipoxygenase ALOX15 (ALOX15, Homo sapiens, UniProt P16050)	inhibitor		pH 7.5, noncompetitive inhibition, added: linoleic acid and 13-HPODE		Kii	20 µM
CCN(CCO)C(C)C(=O)Nc1c(C)csc1C(=O)OC (centres unmarked)	SCN9A	cell membrane chromatography			higher = stronger binding	capacity factor k′	0
RCTKLEYDPRCVYDP	human IgE	peptide microarray	peptide, walnut-allergic patient sera	concentration not given, 16 h, 4 °C		patients with IgE binding	50%
CC(C)[C@H](NC(=O)[C@@H](N)[C@@H](C)O)C(=O)N[C@@H](C)C(=O)N1CCC[C@H]1C(=O)N1CCC[C@H]1C(=O)N1CCC[C@H]1C(=O)N1CCC[C@H]1C(=O)N[C@@H](Cc1ccc(O)cc1)C(=O)N[C@@H](CCCNC(=N)N)C(=O)N[C@@H](Cc1c[nH]cn1)C(=O)N[C@@H](CCCNC(=N)N)C(=O)N[C@@H](CC(N)=O)C(=O)O	WWOX WW1 domain	binding to WW1 domain, isothermal titration calorimetry		concentration not given, pH 7.0, 25 °C		binding enthalpy ΔH	-6.19 ± 0.6 kcal/mol
CN(C)c1ccc(C=CC(=O)O)cc1	Peptidylglycine alpha-amidating monooxygenase, PHM domain (Pam, Rattus norvegicus, UniProt P14925)	inactivator		pH 6.0, 37 °C, added: 5.0 mM ascorbate		kinact	0.00133 ± 0.000167 s⁻¹
KKLTVWI	Alpha-synuclein (SNCA, Homo sapiens, UniProt P37840)	aggregation	peptide	2 molar equivalents, pH 7.5, 37 °C, 1.5% HFIP		time to visible turbidity	~6 h
Nc1ncnc2c1ncn2[C@@H]1O[C@H](COP(=O)(O)OC(=O)CCCCCC(=O)O)[C@@H](O)[C@H]1O	6-carboxyhexanoate--CoA ligase (bioW, Bacillus subtilis, UniProt P53559)			pH 7.0, 37 °C, no CoA		pimeloyl-AMP bound per monomer	1 molecules per monomer
CCCCCCCCC(=O)N(C)[C@H]1CNC1=O	N-acylethanolamine-hydrolyzing acid amidase (NAAA, Homo sapiens, UniProt Q02083)	enzyme activity, inhibitor, fluorogenic PAMCA hydrolysis		pH 4.5, added: 5 µM PAMCA		IC50	inactive
CC1=C(C(=O)OCc2ccccc2)C(c2ccc(-c3ccccc3C)cc2)NC(=O)N1CCCCCc1nnn[nH]1 (centres unmarked)	Heat shock 70 kDa protein 1A (HSPA1A, Homo sapiens, UniProt P0DMV8)	ATPase activity, inhibitor		100 µM, without Hsp40	baseline: DMSO, negative means inhibition	fold change in activity	-1.4 fold
COC(=O)c1scc(C)c1NC(=O)C(C)N1CCN(C(C)C)CC1 (centres unmarked)	SCN9A	cell membrane chromatography			higher = stronger binding	capacity factor k′	94
COc1c(O)ccc2c(=O)cc(-c3ccccc3)oc12	MAL12	enzyme activity, inhibitor, absorbance		25 µM		inhibition	6.5%
CC(=O)N[C@H](Cc1ccc2ccccc2c1)C(=O)N[C@@H](CCCNC(=N)N)C(=O)N[C@@H](Cc1c[nH]c2ccccc12)C(=O)N[C@@H](CCCNC(=N)N)C(N)=O	Melanocyte-stimulating hormone receptor (Mc1r, Mus musculus, UniProt Q01727)	cAMP, agonist, AlphaScreen	HEK293			Emax	40%
CCOCc1ccc(C=O)o1	HBA1 with beta chain	measured: haemoglobin A adduct	human normal whole blood	2 mM, 24 h, hematocrit 30%		peak modification	27.9%
CSCC[C@H](NC(=O)[C@@H]1CCCN1C(=O)[C@@H](NC(=O)[C@H](Cc1ccc(O)cc1)NC(=O)[C@H](C)NC(=O)[C@@H]1CCCN1C(=O)[C@@H]1CCCN1C(=O)[C@@H]1CCCN1C(=O)[C@H](CO)NC(=O)[C@H](Cc1c[nH]cn1)NC(=O)CN)[C@@H](C)O)C(=O)N[C@@H](CO)C(=O)O	WW domain-containing oxidoreductase, WW1-WW2 tandem domains (WWOX, Homo sapiens, UniProt Q9NZC7)	binding, ITC		pH 7.0, 25 °C		TΔS	0.26 ± 0.34 kcal/mol
CCN1C(=O)c2ccccc2[S+]([O-])c2ccc(C(=O)N(C)Cc3ccc(OC)cc3)cc21 (centres unmarked)	D(2) dopamine receptor (DRD2, Homo sapiens, UniProt P14416)	calcium mobilization, antagonist	HEK293 T-REx D2 Gqi5	up to 77 µM		AC50	inactive
